Measured values gathered from unrelated publications.
Compare with care: the assays were run in different laboratories.
KIT D816V: Mast/stem cell growth factor receptor Kit (KIT, Homo sapiens, UniProt P10721, D816V)
UniProt P10721, sequence (whole entry, unmodified, looked up): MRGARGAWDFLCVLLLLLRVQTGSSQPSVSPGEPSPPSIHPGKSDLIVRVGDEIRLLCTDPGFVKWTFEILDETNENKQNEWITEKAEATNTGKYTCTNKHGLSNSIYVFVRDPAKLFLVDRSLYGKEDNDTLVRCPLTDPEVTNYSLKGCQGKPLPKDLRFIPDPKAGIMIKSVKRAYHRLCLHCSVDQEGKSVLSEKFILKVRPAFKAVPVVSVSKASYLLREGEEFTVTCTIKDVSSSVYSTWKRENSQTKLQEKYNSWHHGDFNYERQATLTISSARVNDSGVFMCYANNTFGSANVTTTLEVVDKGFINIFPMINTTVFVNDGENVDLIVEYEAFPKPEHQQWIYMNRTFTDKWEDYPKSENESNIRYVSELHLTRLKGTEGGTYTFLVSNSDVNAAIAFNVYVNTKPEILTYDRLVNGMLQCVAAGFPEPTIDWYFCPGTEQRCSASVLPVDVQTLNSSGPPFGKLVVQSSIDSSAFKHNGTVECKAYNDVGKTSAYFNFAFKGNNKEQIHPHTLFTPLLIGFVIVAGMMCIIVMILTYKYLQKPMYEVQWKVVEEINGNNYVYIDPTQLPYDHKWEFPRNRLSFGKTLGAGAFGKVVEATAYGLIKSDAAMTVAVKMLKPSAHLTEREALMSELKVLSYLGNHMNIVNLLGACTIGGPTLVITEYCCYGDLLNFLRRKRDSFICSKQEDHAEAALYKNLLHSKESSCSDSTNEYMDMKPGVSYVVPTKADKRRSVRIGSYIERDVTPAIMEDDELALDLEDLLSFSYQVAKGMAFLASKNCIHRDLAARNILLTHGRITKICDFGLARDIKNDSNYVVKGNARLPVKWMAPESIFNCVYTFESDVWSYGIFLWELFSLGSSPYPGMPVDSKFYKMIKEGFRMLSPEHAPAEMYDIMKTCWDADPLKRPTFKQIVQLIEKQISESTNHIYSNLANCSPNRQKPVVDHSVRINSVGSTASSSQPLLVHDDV
KIT: Mast/stem cell growth factor receptor Kit (KIT, Homo sapiens, UniProt P10721)

The inhibition of `[2H]c1cc(C)c(NC(=O)c2cnc(Nc3cc(N4CCC(O)CC4)nc(C)n3)s2)c(Cl)c1` is reported as less than 50% (KIT (Homo sapiens, UniProt P10721, V560G); 0.001 µM).
The remaining activity of `COc1cc(N2CCN(C)CC2)ccc1Nc1nc(N)n(C(=S)NCc2c(Cl)cccc2Cl)n1` is reported as 0% (KIT (Homo sapiens, UniProt P10721, L576P); enzyme activity; 10 µM; relative to: control).
`C=CC(=O)N1CCC(COCC(=O)N2CCN(c3nc(-c4cnc(N)nc4C(F)F)nc(N4CCOC[C@@H]4C)n3)CC2)CC1` has a remaining binding of 95% (KIT (Homo sapiens, UniProt P10721, T670I/V559D); KINOMEscan; 1 µM).
The inhibition of `[2H]c1cc(C)c(NC(=O)c2cnc(Nc3cc(N4CCCCC4)nc(C)n3)s2)c(Cl)c1` is reported as 30 to 90% (KIT D816V; 0.01 µM).
The remaining activity of `COc1cc(F)ccc1-c1ncnc(Nc2cccc(C[S@](C)(=N)=O)c2)n1` is reported as 6% (KIT; kinase activity; 10 µM, together with: 10 µM ATP).
`C#Cc1cc(-c2cc(Nc3nc(N[C@@H](C)c4ccc(F)cn4)ncc3Cl)n[nH]2)ccc1C=O` gave an inhibition of 52.1% (KIT; enzyme activity, inhibitor; 0.2 µM).
For `O=C(NC1CCC1)c1ccc2nc(-c3cccc(NS(=O)(=O)NCCN4CCCCC4)c3)cn2c1`, the remaining activity was 88% (KIT (Homo sapiens, UniProt P10721, V559D/V654A); enzyme activity; 10 µM).
For `COc1cc(-c2cncc3c2CN(C)Cc2cc(N4CCNCC4)ccc2-3)cc(OC)c1OC`, the remaining activity was 87% (KIT D816V; kinase activity; 1 µM, together with: ATP 10 µM; relative to: DMSO control).

For quick reference, copied from above:
The inhibition of `[2H]c1cc(C)c(NC(=O)c2cnc(Nc3cc(N4CCC(O)CC4)nc(C)n3)s2)c(Cl)c1` is reported as less than 50% (KIT (Homo sapiens, UniProt P10721, V560G); 0.001 µM).
